Published values gathered from unrelated publications.

Cc1cc(=O)oc2cc(OCCCCCC[Se]C#N)ccc12  GI50 (SW1573; cell growth or viability, SRB): 5300 nM
CC(C)(C)C(=O)OCOP(=O)(OCOC(=O)C(C)(C)C)C1CCCN(O)C1=O (centres unmarked)  GI50 (HCT-15): 675 nM
CC1CCC2C(C)C(OC(=O)CCC(=O)N3CCC(Nc4ccc(S(=O)(=O)NC(=O)c5ccc(N6CCN(CC7=C(c8ccc(Cl)cc8)CC(C)(C)CC7)CC6)cc5Oc5cnc6[nH]ccc6c5)cc4[N+](=O)[O-])CC3)OC3OC4(C)CCC1C32OO4 (centres unmarked)  GI50 (U-937; cell growth or viability): 230 nM
CN(C)C(=O)c1cncc(-c2cnc3[nH]cc(-c4cc(OS(=O)(=O)F)ccc4C#N)c3c2)c1  GI50 (Ba/F3 BCR-ABL wild type; cell proliferation; 72 h): > 1000 nM
O=C(C[Se]C(=O)c1ccccc1)Nc1cccc(C(F)(F)F)c1  GI50 (NCI60 colon subpanel; NCI60 five-dose screen): 6760 nM
CN(C)C(=O)c1cncc(-c2cnc3[nH]cc(-c4cc(OS(=O)(=O)F)ccc4C(F)(F)F)c3c2)c1  GI50 (Ba/F3 BCR-ABL wild type; cell proliferation; 72 h): > 1000 nM
O=C(C[Se]C(=O)c1ccco1)Nc1cccc(C(F)(F)F)c1  GI50 (NCI60 breast subpanel; NCI60 five-dose screen): 2670 nM
Cc1c(Cl)c(=O)oc2cc(OCCCCCC[Se]C#N)ccc12  GI50 (SW1573; cell growth or viability, SRB): 18000 nM

Some of these lines once more:
Cc1cc(=O)oc2cc(OCCCCCC[Se]C#N)ccc12  GI50 (SW1573; cell growth or viability, SRB): 5300 nM
